Published values of several laboratories.
A part holds a random share of what one study measured. Substitutions count along the parent as printed.

Sample 1
Target: ABI1, truncated, D143A, DHFR fusion (Arabidopsis thaliana)
Method: DHFR PCA, deep sequencing
Medium: yeast
Notes: methotrexate growth selection, single substitutions
Added: (+)-ABA 2500 µM
Baseline: wild-type fitted maximum
Direction: higher = stronger binding
Starting sequence: PYL1, truncated, DHFR fusion (Arabidopsis thaliana); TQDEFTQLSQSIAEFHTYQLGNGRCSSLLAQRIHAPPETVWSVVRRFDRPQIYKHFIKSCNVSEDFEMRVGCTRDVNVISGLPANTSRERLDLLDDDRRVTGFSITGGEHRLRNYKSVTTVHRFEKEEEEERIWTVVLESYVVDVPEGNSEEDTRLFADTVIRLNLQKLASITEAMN; partner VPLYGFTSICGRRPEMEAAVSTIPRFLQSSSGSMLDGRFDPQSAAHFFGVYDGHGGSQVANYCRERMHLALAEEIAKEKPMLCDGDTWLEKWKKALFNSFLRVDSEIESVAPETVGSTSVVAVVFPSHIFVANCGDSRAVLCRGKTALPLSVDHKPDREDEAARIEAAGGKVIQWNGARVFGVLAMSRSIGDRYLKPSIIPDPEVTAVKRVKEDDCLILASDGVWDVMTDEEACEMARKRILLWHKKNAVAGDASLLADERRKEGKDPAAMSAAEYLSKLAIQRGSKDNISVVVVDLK
`Y115H`: “relative binding score” 45.3%.
For `K54N`, “relative binding score” read 65.1%.
Under “relative binding score”, `Q167K` is recorded as 96.1%.
`S87V`: “relative binding score” 77.2%.
Under “relative binding score”, `V118T` is recorded as 102%.
Under “relative binding score”, `Q19S` is recorded as 99.3%.
Under “relative binding score”, `Q7W` is recorded as 105%.
Under “relative binding score”, `V62N` is recorded as 81.5%.
For `P146M`, “relative binding score” read 67%.
Under “relative binding score”, `S63L` is recorded as 95.2%.
For `I52V`, “relative binding score” read 93.3%.
`Q167W`: “relative binding score” 74.5%.
For `E129Y`, “relative binding score” read 101%.
Under “relative binding score”, `L138S` is recorded as 52%.
Under “relative binding score”, `M176P` is recorded as 104%.
Under “relative binding score”, `R155F` is recorded as 70.8%.
Under “relative binding score”, `L8W` is recorded as 107%.
`I172V` — result for “relative binding score”: 95.6%.

Sample 2
Target: CCNA1, cyclin fold, Cln2 fusion (human)
Method: yeast growth competition, sequencing
Medium: yeast
Notes: weak parent motif
Baseline: not given
Direction: higher = stronger binding
Starting sequence: MICAL3 docking peptide (human); LQLRRQLSFSEDS; partner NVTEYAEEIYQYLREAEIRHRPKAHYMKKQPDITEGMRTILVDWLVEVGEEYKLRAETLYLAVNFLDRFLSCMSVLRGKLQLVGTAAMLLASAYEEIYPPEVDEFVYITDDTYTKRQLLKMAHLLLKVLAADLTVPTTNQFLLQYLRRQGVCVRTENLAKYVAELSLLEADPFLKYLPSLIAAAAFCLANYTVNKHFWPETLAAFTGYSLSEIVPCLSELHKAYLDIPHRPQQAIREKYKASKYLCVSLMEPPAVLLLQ
For `LQLRRQLSFSEFS [D12F]`, “normalised enrichment score” read 0.392.
For `LQLRRQLSCSEDS [F9C]`, “normalised enrichment score” read -0.0676.
`LQLRRQLSFSEES [D12E]` — result for “normalised enrichment score”: 0.785.
`LQLRRQLSISEDS [F9I]` — result for “normalised enrichment score”: -0.0758.
`LQLRRQNSFSEDS [L7N]` — result for “normalised enrichment score”: -0.103.
`LQLRRQLSFSETS [D12T]` — result for “normalised enrichment score”: 0.277.
For `LQLRRFLSFSEDS [Q6F]`, “normalised enrichment score” read -0.4.
Under “normalised enrichment score”, `LQLRRWLSFSEDS [Q6W]` is recorded as -0.289.
`LQLRRQLSFSECS [D12C]`: “normalised enrichment score” 0.395.
Under “normalised enrichment score”, `LQLRRQLSFPEDS [S10P]` is recorded as 0.813.
For `LQLRRQHSFSEDS [L7H]`, “normalised enrichment score” read 0.0955.
For `LQLRRQLSKSEDS [F9K]`, “normalised enrichment score” read 0.31.
`LQLRRQLSHSEDS [F9H]`: “normalised enrichment score” -0.0694.
Under “normalised enrichment score”, `LQLRRQLSGSEDS [F9G]` is recorded as 0.408.
Under “normalised enrichment score”, `LQLRRQLSASEDS [F9A]` is recorded as 0.207.
`LQLRRTLSFSEDS [Q6T]`: “normalised enrichment score” 0.342.
`LQLRRDLSFSEDS [Q6D]`: “normalised enrichment score” 0.0373.
`LQLRRQLSFSDDS [E11D]` — result for “normalised enrichment score”: 0.275.
`LQLRRQLSFSIDS [E11I]`: “normalised enrichment score” -0.441.
`LQLRRQLSFAEDS [S10A]` — result for “normalised enrichment score”: 0.35.
`LQLRRQLYFSEDS [S8Y]`: “normalised enrichment score” 0.441.
`LQLRRQRSFSEDS [L7R]`: “normalised enrichment score” 0.0215.
Under “normalised enrichment score”, `LQFRRQLSFSEDS [L3F]` is recorded as 0.229.
`LQLRRQLSFSPDS [E11P]` — result for “normalised enrichment score”: 0.464.
Under “normalised enrichment score”, `LQLWRQLSFSEDS [R4W]` is recorded as -0.313.

Sample 3
Target: RNA binding protein fox-1 homolog 2, RRM domain, GST-SBP tag (RBFOX2, Homo sapiens, UniProt O43251-10, residues 100-194)
Method: RNA Bind-n-Seq
Form: RNA
Medium: in vitro
Tested at: 365 nM
Notes: natural RNA segment, single round, ends assumed
Baseline: no-protein control
Direction: higher = stronger binding
Shared flanks, not repeated: GGGAGUUCUACAGUCCGACGAUC … UGGAAUUCUCGGGUGCCAA
Construct (chain): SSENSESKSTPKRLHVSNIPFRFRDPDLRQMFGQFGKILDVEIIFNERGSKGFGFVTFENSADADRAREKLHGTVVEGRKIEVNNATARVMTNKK
`UCUACAGAAGCUGAAAACAGGCGUUUUAGAUAUUGGUAUAUUGGUAUAUGAUAUGGUAUGAUGCUUAUGGUCUGCUAUGAGCAUUCCUGGGCAUACCACAUAACUAGAUG` — result for “RBNS enrichment (R)”: 0.349.
For `GGACAGAGGCCCAAUGGGUGAAGGCUUUGAAGAGCACACAGAAGCCCCUGGCCCCCCACGAGAGCUGGAGAGCCAUGUAUAUGGCUUCAAAGCCACCUACGGCAGGGACA`, “RBNS enrichment (R)” read 0.4.
For `GUACAACUCUUAAGAAAGCCAUACUUAAUGGUGAUGUUAUUUUUUAGAUCCUAUUGUGAUUUGUAUGUGGCUCUUUUAGAAUCACUUGUAGUGAGGGUGCUGUGUGUGCU`, “RBNS enrichment (R)” read 1.47.
`ACAGGAGUACUGGAGGGAUUUGCAAGCUAACGGGCCAAAUGCUUCCAUAGGAAUAAGGCAUGCCCAGCUAACAGAAAUUUAAGUCCCUCUUCCCCACCUCUCUCAUCUAG` — result for “RBNS enrichment (R)”: 0.377.
`UCUGGCAAAGAGAAUACAAAUGAAACCCCUUCUUUCUCUUUCCGUCCAACAACUCUGUAGAGCUCUCUGCACCCUUACCCCUUUCCACCUUUUGUAUUUAAUUUUAAAGU`: “RBNS enrichment (R)” 0.429.
`CACAGCUGCACGCACGCAUGCAAGUUCACAGCGCAGGCACCCCCAGCUCGCCUGGAUCUGACUCCAAGUGGCUUGGGUGCCUGGUGGGCAGCACCUUGGAGACCAAGCAG` — result for “RBNS enrichment (R)”: 7.85.
Under “RBNS enrichment (R)”, `AUUCAAAUGGGAUUGAUUAGUCAAGUAACUUGAGACCUCACAGUAAUCUUCACACUUAACCUUAGACACCUAUGCAGUCAUGUUGGGAGCAGGUUACAAUGUUACUUCAG` is recorded as 0.282.
Under “RBNS enrichment (R)”, `GGGUGACUGUGUGUGAUGUGCAGAGUCCUUGGACAGGAGUCGGGGGCUCCUCUGUCCCACUGCUGCUUCUUGAGUGGGUGGAGUGGUGCUUAGAGGAUCUCCGAGAGGUC` is recorded as 2.77.
`GGUCUUGGAAGGGUGGUCUUUAUACAGGUUUUACUGUAAUGGUAAGGAUCGACUCGAGACAGUAUUAGUAAAUAUAUUUUGUAUGGAUCAAAACAGUGAGCACCGUAUGA`: “RBNS enrichment (R)” 0.367.
For `UCUAGCAAGCCAUGGAGACAGGUAGCAUUUGUAAGAUGCUGCACAGGAGCAGCAUUAUCCCCAAAGAUAUUACAGGGUAGACACGUUUUAACUGAAAUCAAUCAAGAUAA`, “RBNS enrichment (R)” read 0.668.
`CAAGCUGAGGACCCAAAGUUGGACACAGAAAUGGUAGUGUUGGAAAGACAGACAGGCAAAGACGGCACACGUUGGGUCUGCUUCCAGUCCAUAGGCCACCAAUUCUCCUU` — result for “RBNS enrichment (R)”: 0.275.
`UGUUUGUGACUUAUGGGCUUAUUUUACAGACAAGAUGAGAGUUACCACUCUAAGAAAACAAACAGCAAGUCUCAGCAACAUAACAAGAAUACACAUUGUGAGGCAGAUGU` — result for “RBNS enrichment (R)”: 0.75.

Sample 4
Target: Fragile X messenger ribonucleoprotein 1, C-terminal low-complexity region (Fmr1, Mus musculus, UniProt P35922)
Method: RNA Bind-n-Seq
Form: RNA
Medium: in vitro
Tested at: 200 nM
Notes: whole 134-nt RNA, ends assumed
Added: 150 mM KCl
Baseline: input library
Direction: higher = stronger binding
Shared flanks, not repeated: GGGAGUUCUACAGUCCGACGAUC … UGGAAUUCUCGGGUGUCAAGG
The log2 enrichment of `CCUCAAGUCCUGUGCUACACAUCGUAUGUACCGAAUCGGAAGGAAGGAAGGGGAAAGUAUUAUGUUACGCCGUUCGGAUCUGCACUUCCA` is reported as -0.109.
`UGGCCCUGGUGGCAUGCGGGGAGGAAGAGGUGGCUUCAUGGAUCGUGGUGGUCCCGGUGGAAUGUUCAGAGGUGGCCGUGGUGGAGACAG` gave a log2 enrichment of 0.273.
The log2 enrichment of `UAACUUUAGAGGAGGAUCUGAUGGAUAUGGCAUUGGACGUGGAUUUGGGGAUGGCUAUAAUGGGUAUGGAGGAGGACCUGGAGGUGGCAA` is reported as 0.406.
`UAACUUUAGAGGAGGAUCUGAUGGAUAUGGCAGUGGACGUGGAUUUGGGGAUGGCUAUAAUGCGUAUGGAGGAGGACCUGGAGGUGGCAA` has a log2 enrichment of 0.0716.
The log2 enrichment of `CCUGUGCUACACAUCGUAUGUACCGAAUCGGGGUUUUUUUGGGGAAAAAGGGGUUUGGGGAAAGUAUUAUGUUACGCCGUUCGGAUCUGC` is reported as 0.23.
`UCCUGUGCUACACAUCGUAUGUACCGAAUCGGGGUUUUUUGGGUUUUUUGGUUUUUUGGAAAGUAUUAUGUUACGCCGUUCGGAUCUGCA` gave a log2 enrichment of -0.001.
`CUCAAGUCCUGUGCUACACAUCGUAUGUACCGAAUCGGGGAGGGGAGGAGGGGAAAGUAUUAUGUUACGCCGUUCGGAUCUGCACUUCCA` has a log2 enrichment of 1.24.
The log2 enrichment of `CUCAAGUCCUGUGCUACACAUCGUAUGUACCGAAUCGGAAAGGUUUGGAAAGGAAAGUAUUAUGUUACGCCGUUCGGAUCUGCACUUCCA` is reported as -0.482.
`ACCAUGCAGGUGGGCAUCUUUGGGAAGUGGGGCAAGGGCGGGAUAGGGAGGGGGGUAACACUUUGGGAACAGGUGGUCCCAGGUCGUUUC` has a log2 enrichment of 0.582.
`AAGUCCUGUGCUACACAUCGUAUGUACCGAAUCGGGAGGGUUUGGGUUUUUUUGGGAAAGUAUUAUGUUACGCCGUUCGGAUCUGCACUU` has a log2 enrichment of 0.604.
With `UCAAGUCCUGUGCUACACAUCGUAUGUACCGAAUCGGGGAAGGGAAGGAAGGGGAAAGUAUUAUGUUACGCCGUUCGGAUCUGCACUUCC` the log2 enrichment was 0.634.
For `CUCAAGUCCUGUGCUACACAUCGUAUGUACCGAAUCGGGGAAGGAAGGGGAAGGAAAGUAUUAUGUUACGCCGUUCGGAUCUGCACUUCC`, the log2 enrichment was 0.0455.
The log2 enrichment of `UUAUCACCAGGACUGCCAUGUUCCCAGGGCUCCAGCCCCUGGAGAGGGAGAGGGCACAUCCUGGGUAUGCCGCCAGUGUGUCUUUGCGAU` is reported as -0.87.
With `CUCAAGUCCUGUGCUACACAUCGUAUGUACCGAAUCGGAAAGGAAAAAGGAGGAAAGUAUUAUGUUACGCCGUUCGGAUCUGCACUUCCA` the log2 enrichment was -0.153.

Excerpt of the above (sample 3):
`UCUGGCAAAGAGAAUACAAAUGAAACCCCUUCUUUCUCUUUCCGUCCAACAACUCUGUAGAGCUCUCUGCACCCUUACCCCUUUCCACCUUUUGUAUUUAAUUUUAAAGU`: “RBNS enrichment (R)” 0.429.
`CACAGCUGCACGCACGCAUGCAAGUUCACAGCGCAGGCACCCCCAGCUCGCCUGGAUCUGACUCCAAGUGGCUUGGGUGCCUGGUGGGCAGCACCUUGGAGACCAAGCAG` — result for “RBNS enrichment (R)”: 7.85.
Under “RBNS enrichment (R)”, `AUUCAAAUGGGAUUGAUUAGUCAAGUAACUUGAGACCUCACAGUAAUCUUCACACUUAACCUUAGACACCUAUGCAGUCAUGUUGGGAGCAGGUUACAAUGUUACUUCAG` is recorded as 0.282.
Under “RBNS enrichment (R)”, `GGGUGACUGUGUGUGAUGUGCAGAGUCCUUGGACAGGAGUCGGGGGCUCCUCUGUCCCACUGCUGCUUCUUGAGUGGGUGGAGUGGUGCUUAGAGGAUCUCCGAGAGGUC` is recorded as 2.77.
`GGUCUUGGAAGGGUGGUCUUUAUACAGGUUUUACUGUAAUGGUAAGGAUCGACUCGAGACAGUAUUAGUAAAUAUAUUUUGUAUGGAUCAAAACAGUGAGCACCGUAUGA`: “RBNS enrichment (R)” 0.367.
